Experimental data of several laboratories.
Compare with care: the assays were run in different laboratories. ± marks the error that the study gave.

`C/C(=N\c1ccc(O)cc1)c1cc2ccccc2n1C` gave a fu of 0.005 (ultrafiltration; rat plasma; 500 ng/mL, 1 h, 37 °C).
For `Cc1cc(C)c(CNC(=O)c2cc(Cl)c3c(c2C)O[C@@](C)([C@H]2CC[C@H](N(C)C)CC2)O3)c(=O)[nH]1`, the fu was 0.152 (ultracentrifugation; 0.1% human alpha-1-acid glycoprotein; 3000 ng/mL, 160 min).
With `Cc1nc2ccc(OCc3ccc(C(F)(F)F)cc3)cc2[nH]1` the fu was 0.0375 (rapid equilibrium dialysis; mouse brain homogenate; 2 µM, 4 h, 37 °C).
`CC(=O)N1CCN(c2ccc(OCC3COC(Cn4ccnc4)(c4ccc(Cl)cc4Cl)O3)cc2)CC1` (stereo not drawn) has a fu of 0.0076 (equilibrium dialysis; plasma, mouse, CD-1, pooled).
With `COc1ccc2cc(CCC[18F])ccc2c1` the fu was 0.223 (gel filtration; human plasma; 120 min, 37 °C).
`CC#Cc1cncc(-c2ccc3c(c2)[C@@]2(N=C(C)C(N)=N2)[C@]2(CC[C@H](OC)CC2)C3)c1` has a fu of 0.045 (unbound fraction; rat brain slices; 1 µM, 5 h, artificial interstitial fluid).
`OCc1nc2ccc(NCc3ccc(C(F)(F)F)cc3)cc2[nH]1` has a fu of 0.107 (rapid equilibrium dialysis; mouse plasma; 2 µM, 4 h, 37 °C).
`CC[C@H]1OC(=O)[C@H](C)[C@@H](O[C@H]2C[C@@](C)(OC)[C@@H](O)[C@H](C)O2)[C@H](C)[C@@H](O[C@@H]2O[C@H](C)C[C@H](N(C)C)[C@H]2O)[C@](C)(O)C[C@@H](C)C(=O)[C@H](C)[C@@H](O)[C@]1(C)O` gave a fu of 0.285 ± 0.01 (equilibrium dialysis; human plasma; 2 µM, 20 h, pH 7.4, 37 °C).
`Cc1cnc(N2CC3(CCOCC3)C2)c(C(=O)Nc2ccc(C(=O)N3CCc4cc(C(=O)Nc5c(C)cccc5F)sc4-c4ccccc43)cc2)c1` has a fu of 0.01 (mouse plasma).

Repeated from above:
`CC(=O)N1CCN(c2ccc(OCC3COC(Cn4ccnc4)(c4ccc(Cl)cc4Cl)O3)cc2)CC1` (stereo not drawn) has a fu of 0.0076 (equilibrium dialysis; plasma, mouse, CD-1, pooled).
